# Experimental data collected from several papers.
# Parts stem from different laboratories: compare values within a part only.

# Sample 1 — technique: protein-binding microarray; form: double-stranded DNA, one strand shown; sample: in vitro; concentration: 250 nM; setting: 60-bp whole probe; together with: salmon DNA 0.4 mg/ml; reference: random background probes; reading: higher = stronger binding; shared flanks, not repeated: GCCTAGCAC … GTCTTGATTCGCTTGACGCTGCTG
# Target: Interferon regulatory factor 5, full length, phosphomimetic (IRF5, Homo sapiens, UniProt Q13568-2, residues 1-514, K96S/S451D/S453D/S456D/S462D)
Sequence,log fluorescence [z-score]
GATGGTATCCTTATCCTGACGTGCTAG,0.172
GTCATTTTCTCTTATTCTAAGTGCTAG,2.6
GTTACTTTCTACTTCTCTTTGTGCTAG,5.43
GATTTTTTTCATATATATATGTGCTAG,2.29
GACGGTCTAGGACTGGGGACGTGCTAG,-0.33
GCCATTTTCCCTCCCTAATTGTGCTAG,0.911
GACGATATCGGTACTGGAGACGTGCTA,3.09
TTAGATTTCAGACTGGAGTAGTGCTAG,0.333
TTAGGTCTCCTTAACCTTTAGTGCTAG,-0.304
TTAGGTTTCGACTTTCCGTTAGTGCTA,7.29
TTAGAACTGGGTTTTCGATTAGTGCTA,3.47
TTAGAAATCAGTCTCGATTAGTGCTAG,1.37
TTAGAACTGAGTATCGATTAGTGCTAG,6.29
GACGGACTGTGACTGGGGACGTGCTAG,-0.487
TTAGGTCTCATACTGCTTTAGTGCTAG,0.0124
TCAACTCTGAACCTTCAGACTGTGCTA,-0.0611

# Sample 2 — technique: protein binding microarray; form: double-stranded DNA, one strand shown; sample: in vitro; concentration: not given; reference: not given; reading: higher = stronger binding
# Target: Histone acetyltransferase KAT6A, both winged helices, GST fusion (KAT6A, Homo sapiens, UniProt Q92794, residues 1-181)
# Setting: 8-mer, flanks averaged, mean of 2 arrays, mostly near background
# Target sequence (chain): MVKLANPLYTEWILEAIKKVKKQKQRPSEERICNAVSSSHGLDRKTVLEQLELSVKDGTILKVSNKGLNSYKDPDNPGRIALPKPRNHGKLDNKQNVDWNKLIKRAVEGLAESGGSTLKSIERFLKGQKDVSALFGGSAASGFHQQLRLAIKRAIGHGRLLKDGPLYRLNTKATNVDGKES
Sequence,E-score
GAGGCAGC,-0.0614
CCAAACTA,-0.157
GCGACGAC,0.0526
ATCTATCC,-0.0453
AGGAACCA,-0.0438
CCCATACC,-0.0534
AATGGACG,0.185
CGACCCGA,0.0764
GCTGTTAA,0.197
AGGTAAAA,-0.121
GACCATGC,0.0163
ATCAGAAT,-0.127
GGATGGAC,-0.0264
CGTCACGC,0.265
AAAACGCG,0.279
ATAATCTG,-0.113
CAATCAGA,-0.15
ATCATCAG,-0.0548
GCACCGGA,0.228
AGTATCAC,-0.0492
AAAGAGGA,-0.236
ATATGAAC,-0.0641
ATACCACG,0.0288
ACATTGCA,-0.0569

# Sample 3 — technique: aptamer microarray, sandwich; form: DNA with 2'F-ANA; sample: in vitro; concentration: 200 nM; together with: Cy3 exosite-II aptamer, 400 nM; reading: higher = stronger binding; sequence: GGTTGGTGTGGTTGG
# Target: Prothrombin, mature alpha-thrombin (F2, Homo sapiens, UniProt P00734)
# Setting: whole 15-mer aptamer, many near background
Modification,mean fluorescence intensity [a.u.]
2'F-ANA at 1 2 4 5 9 10 11 13 15,49.2
2'F-ANA at 4 5 8 14,49.9
2'F-ANA at 3 7 11 12 13 14,651
2'F-ANA at 1 3 4 5 6 8 9 10 11 13 14 15,54
2'F-ANA at 1 4 5 6 7 8 9,73.2
2'F-ANA at 1 3 7 11 15,275
2'F-ANA at 1 2 4 7 8 10 11 13 14,56.7
2'F-ANA at 3 7 9 11 13,891
2'F-ANA at 2 3 5 7 8 9 10 12 14 15,75.7
2'F-ANA at 3 4 6 9 10,264
2'F-ANA at 1 2 3 4 6 7 10 14,46.5
2'F-ANA at 2 3 4 5 7 11 15,95.9
2'F-ANA at 1 2 4 5 6 9 12 13 14,55.4
2'F-ANA at 1 2 3 5 6 10 12 13 15,182
2'F-ANA at 1 3 6 8 9 12 13 14 15,113
2'F-ANA at 1 3 5 6 7 8 10 11 13,47.2
2'F-ANA at 1 4 5 7 8 11 15,54.2
2'F-ANA at 1 2 3 7 8 11 14,84.6
2'F-ANA at 3 4 5 6 8 12 13 14,89.1
2'F-ANA at 1 2 3 5 7 8 10 11 12 13 15,125

# Sample 4 — technique: RNA Bind-n-Seq; form: RNA; sample: in vitro; concentration: 365 nM; reference: no-protein control; reading: higher = stronger binding
# Target: RNA binding protein fox-1 homolog 2, RRM domain, GST-SBP tag (RBFOX2, Homo sapiens, UniProt O43251-10, residues 100-194)
# Setting: natural RNA segment, single round, ends assumed
# Shared flanks, not repeated: GGGAGUUCUACAGUCCGACGAUC … UGGAAUUCUCGGGUGCCAA
# Construct (chain): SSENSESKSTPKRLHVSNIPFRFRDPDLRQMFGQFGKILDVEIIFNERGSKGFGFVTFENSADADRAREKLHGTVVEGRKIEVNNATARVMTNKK
Sequence,RBNS enrichment (R)
GGGAGUGGCCAGGCCAGAUUGAAGGUGAAUAUGGAGCAGUAGCAGAAGCCUCAUUCCAGAACCCAUCUGGCCAGAGAAGCAGCAGCAUCCUGGGGGAUGGCCGUGCAUGG,15.8
ACGGUUUCCAAUGCGCCGUCACCAUCUCCACCUGCCACCAAACCACCAGCAGAGUAGCCGCCGCUGCUGUGAGCCUGGGGACGACAUGGCAGGCUGGUCCCCCUCCGUGA,0.269
GAGUGUAGUGAAACGGACUCUCAUGUGAACUGGGUGGUUUCCACUAAGAAUGGUUGUGUUUGGAUACUUGUAAAUGCUGUUUAGUUAGAAAAAGCAUGUUAAGUUGGUAU,8.01
GACAGAGCAGGAGGCGGUCUGUCACCUCGGCCACUGCUGACCUGGGCUGGCCUCCCCCAGCCCUCCCGUGGCGGAGCCGGCAGCGAUGCUACAGGCCUAAGUUAUUGUUU,0.339
GGUGACCCAUUUCCCCAGCCGUGUCGUCUCCAGGACCACCCGAUGGAAAUAACAGGCGGGCUUCACGGUGCGGCUCUGUCCGCCCAUGCCCCGCUGGGUCUGCAGGGAAC,0.17
GCACCAACCCCAGCUCGACCCUUCCAAUCUUCCCUGCACUGCCGCUGCCCGCUGGGGACCAGUUCCCACGAGCCUGUCACACCCCAGUCCUGUGUUACAAUUUUUCGUUU,0.948
AUUUUUCUUGGGAAUUGAAAAAAAUUGAAAUAAAUAAAAAUGCAUUGAACAUCUUGCAUUCAAAAUCUUCACUGACAAUGCAGCCUCAUUCUUUUUUUUUCUUUUGCAAU,0.741
UUUACCGCCUUUUGAGGAACACAAAUCGGAGAACAAACCCAGGGUUCAGGCGUGUUUUCUGUGAAUGUUGGAUGAUGAAUUUUUGUCUCUUCUGGUGGAGCUGUGCCUGG,0.737
AAUGUGGUCUGUACAAGGACACUGGAGGAAGUAUGUUUGCUACCUGUAAGUUCUAAAUGUGUACUCCUGAGGUUACAGUUUGGGUGUUAGGAGAAGUCUUUGUAGUCUCU,0.929
AUGUCAUGUACUACACACAUGUCAUAUAGUACAUACAUGUCAUGUCCAUUUAACGACUGGUCACCUGCUGGGGACCCAGGCAUCUGCCUUGUUUUCCUUUUUCUUUCAGU,0.374
AGACAAAUGAAACCACGCUGCGCUUCCGAUGCCCCCGCUUGCCGUGUAAUGGUUCAGCUAAUCCCAUGGCGAGAUGGGGGCUCACUCCGGAGGAGGAGCCAGGCAGCAGG,0.287
GUCAUAGGUAAUUUGGAACAUUUACAAGCCAUUUGUAAAAUUUUAAGAUAAUCUGUAACUAAUACAUAAAAACAACUUAGCAAAUGUGCCAUUUUCACACAACUUCUCUC,0.346

# Sample 5 — technique: universal PBM; form: double-stranded DNA, one strand shown; sample: in vitro; concentration: not given; reading: higher = stronger binding
# Target: Sal-like protein 4, full length isoform B (SALL4, Homo sapiens, UniProt Q9UJQ4-2, residues 1-616)
# Setting: 8-mer, flanks averaged, mean of replicates
Sequence,E-score
CTGTGACC,-0.163
AACAAAGA,0.196
ACGCGTTG,0.00395
CGCTCACC,-0.319
CTAAGTAC,0.131
GCTTCCCC,-0.335
ATTTCAAG,0.241
CTAGCGAG,-0.263
ATTCTTAA,0.152
AGTGTTTA,0.224
ACGAGAAC,0.0228
ATGTATGC,0.267
GATCACCC,-0.185
AAAAGCGA,0.117
ACAGGTCC,-0.174
GACTTAGA,-0.042
ACTTGATA,0.283
ATTGGACA,0.141
GCCCAAAA,-0.0107
CTGCCAAG,-0.0452
AAACGCAC,0.00937
AGTTGTGA,0.171

# Sample 6 — technique: RNA Bind-n-Seq; form: RNA; sample: in vitro; concentration: 100 nM; reference: input RNA pool; reading: higher = stronger binding
# Target: RING finger protein unkempt homolog, zinc fingers 1-6, SBP tag (UNK, Homo sapiens, UniProt Q9C0B0, residues 30-357)
# UniProt Q9C0B0, sequence (30-357, looked up): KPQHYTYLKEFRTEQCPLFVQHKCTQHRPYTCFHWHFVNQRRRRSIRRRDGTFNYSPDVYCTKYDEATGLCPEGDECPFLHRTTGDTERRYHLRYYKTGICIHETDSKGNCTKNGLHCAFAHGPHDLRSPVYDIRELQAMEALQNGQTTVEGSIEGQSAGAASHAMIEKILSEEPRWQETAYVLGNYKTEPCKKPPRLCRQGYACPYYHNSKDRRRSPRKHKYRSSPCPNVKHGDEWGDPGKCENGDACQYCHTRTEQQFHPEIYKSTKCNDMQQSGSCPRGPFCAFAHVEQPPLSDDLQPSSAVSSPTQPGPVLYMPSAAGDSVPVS
# Setting: RNA with constant flanks, vertebrate orthologous sites, ends assumed
# Shared flanks, not repeated: GGGAGUUCUACAGUCCGACGAUC … CAACAGAGGAUUGAGCAUCA
Sequence,bound/input enrichment [ratio]
CCCUCUGAACCCCAUAUCUUCCGUCUCAUAGUGCAGAAGUAGUCUUUUCAAUUAUAUUAUUAGCGGACUUGUUUUAAUUUUAGGGAAACCUUCAGUACAGAUACUGUGAGCUUACGUGGA,3.32
GUUGUUUUGUACAGGGCAUUCUCUGUACUAAUUUGUUGUGGUUAUAAACAGUUAGCAAAACAGCUUACAUUUGUAUUUAUUUUCUAUUCCAUACCUCUCUGCCCAUGUUUUUUCUCCUCA,1.24
UUCUCUUAGCGAUAGUAUUCCAUCCGUAGCAGAUUCUCACUCGAGUCAUUUUUCUGAGUUCAGUUGCUCAGAUAUGGAAAGUAUGAAAACUUCCUGUAGCCACGGUUCCAGCGACUAUCA,1.53
AAACUUAUAUUGUGGCAUAUAGGCAACAUGGAAGUAGACCAGCUCUGCUGAUUGGAAAUUUAGAUUUUUUAAUUAUGUACUGGGGACAGGUUUUUGUCGCUUUACAUUGCUUCCUAGUUU,3.35
CCCUCUGAACCCCAUUUCUUCUGUUUCAUAGUGCAGAAGUAUAUUUUUCAACUACAUUAUUAGUGGACUUGUUUUAAUUUUAGGGAAACUUUCAGUACAGAUACUGUGAGCUUACAUGGA,2.21
CACAUCGGGUGAUAUUUGGCCUGGCCUUUCAGCUUAUGAUAAUAGUCCCAGAUCACCACACAGUCCUUCACCUAUUGCUACACCACCAAGUCAGAGUUCAUCUUGCUCUGAUGCCCCUAU,0.613
CUUCCUCCAACUUCAGUUUUUCAGGUUGUAGCUGAUCCAUCUUUUAUUCUUCCUCUCCUCUCACUGUUGCUUUCCUUUCCUUUCUGUCUGCCCAACAUCAGACACAUGCAUUCAUCCCCU,1.1
AUUGUGAUAGAGGGGCAAUAUUGAGUAGUAUUCUUGUCUUUAUCUUUUGUCCCCAAAACCUAGCUUUCUUUUUAAAAUUUCACUACCCUUGAAAUUCGUAUUUCCAGUUUCCACAUUGUU,7.41
UUUGAUUUUAUGUGUUUAAAAAGUUUAAGAAACAUUGCUUUAAAAAAAAAAAGAAGGAAAAAAGGCAAGUAGAGCAAACGGUUGUUGAAGUAGAAGAGAGAUGUAGGUAGAGGAUGUACU,0.359
GCCUGUGCUUAUACUCUCCUGAGGAAGAGACAAAUUGGGGAAACCUGUCUCCUUUUUAUAGUUUCCUUCUAAAUUAUGACCAGAAGAUAUUUUGCUAUUUCUUUCUUUAUAUAUGGACUU,0.813
ACCUUUUGUAGGCCAAAUACCCUCCUUCUACUGCUUCUGCCAACUGGAAGCACAGAAAACUAGAAUUUCAUUUUAUUUUGUUUAAAAAAAAAAAAUUGAUUUCUUGUAACAUCCACUAGG,0.498
